Assay results from different studies.
Compare with care: the assays were run in different laboratories. ± marks the error that the study gave.
MAOB: Amine oxidase [flavin-containing] B (MAOB, Homo sapiens, UniProt P27338)
BCHE: Cholinesterase (BCHE, Homo sapiens, UniProt P06276)

Protein sequences, listed by entry. Tags and fused reporters are not part of them. Lines headed by an entry give the natural chain unless they say otherwise; changes in a name come on top. Residues count along the entry.
UniProt P27338, whole entry: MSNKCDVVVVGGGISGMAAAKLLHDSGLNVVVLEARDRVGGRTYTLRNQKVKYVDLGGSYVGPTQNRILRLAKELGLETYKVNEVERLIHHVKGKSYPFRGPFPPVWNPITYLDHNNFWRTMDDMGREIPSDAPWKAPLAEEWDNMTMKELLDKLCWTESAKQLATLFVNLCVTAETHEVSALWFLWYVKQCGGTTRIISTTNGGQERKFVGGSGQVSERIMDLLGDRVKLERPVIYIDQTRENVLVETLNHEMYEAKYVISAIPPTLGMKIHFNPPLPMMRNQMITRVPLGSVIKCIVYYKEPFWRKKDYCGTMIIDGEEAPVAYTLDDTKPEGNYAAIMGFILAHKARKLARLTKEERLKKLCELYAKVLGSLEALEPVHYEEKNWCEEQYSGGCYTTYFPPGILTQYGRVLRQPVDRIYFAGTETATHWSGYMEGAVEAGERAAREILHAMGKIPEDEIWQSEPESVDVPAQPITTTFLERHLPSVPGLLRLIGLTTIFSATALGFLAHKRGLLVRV
UniProt P29376, whole entry, looked up: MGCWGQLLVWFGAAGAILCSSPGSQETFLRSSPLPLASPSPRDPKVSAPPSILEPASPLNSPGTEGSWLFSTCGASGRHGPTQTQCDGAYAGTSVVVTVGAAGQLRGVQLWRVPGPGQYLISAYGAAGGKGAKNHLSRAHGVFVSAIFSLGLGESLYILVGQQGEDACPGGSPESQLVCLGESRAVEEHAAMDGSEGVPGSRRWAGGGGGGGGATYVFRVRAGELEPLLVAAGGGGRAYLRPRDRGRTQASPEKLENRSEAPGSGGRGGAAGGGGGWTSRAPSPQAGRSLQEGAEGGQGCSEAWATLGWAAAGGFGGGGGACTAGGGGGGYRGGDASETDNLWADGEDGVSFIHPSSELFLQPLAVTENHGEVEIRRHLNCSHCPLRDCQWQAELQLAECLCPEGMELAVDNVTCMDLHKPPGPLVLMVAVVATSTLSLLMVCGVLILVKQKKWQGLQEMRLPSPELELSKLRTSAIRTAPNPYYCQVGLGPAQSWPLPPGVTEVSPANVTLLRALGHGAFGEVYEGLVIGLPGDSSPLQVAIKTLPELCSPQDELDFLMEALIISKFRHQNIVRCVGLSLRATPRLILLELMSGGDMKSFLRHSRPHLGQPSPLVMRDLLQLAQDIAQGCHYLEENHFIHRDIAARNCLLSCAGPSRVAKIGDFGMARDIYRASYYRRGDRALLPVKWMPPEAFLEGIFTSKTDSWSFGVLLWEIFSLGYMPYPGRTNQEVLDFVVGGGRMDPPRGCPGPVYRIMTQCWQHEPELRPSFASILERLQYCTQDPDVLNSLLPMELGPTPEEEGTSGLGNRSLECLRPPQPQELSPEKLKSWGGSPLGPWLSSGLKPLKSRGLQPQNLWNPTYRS
UniProt P0A800, whole entry, stated change not applied: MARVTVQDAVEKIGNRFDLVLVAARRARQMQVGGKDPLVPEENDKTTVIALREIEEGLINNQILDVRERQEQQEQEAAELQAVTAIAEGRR
UniProt P0A8T7, whole entry, stated change not applied: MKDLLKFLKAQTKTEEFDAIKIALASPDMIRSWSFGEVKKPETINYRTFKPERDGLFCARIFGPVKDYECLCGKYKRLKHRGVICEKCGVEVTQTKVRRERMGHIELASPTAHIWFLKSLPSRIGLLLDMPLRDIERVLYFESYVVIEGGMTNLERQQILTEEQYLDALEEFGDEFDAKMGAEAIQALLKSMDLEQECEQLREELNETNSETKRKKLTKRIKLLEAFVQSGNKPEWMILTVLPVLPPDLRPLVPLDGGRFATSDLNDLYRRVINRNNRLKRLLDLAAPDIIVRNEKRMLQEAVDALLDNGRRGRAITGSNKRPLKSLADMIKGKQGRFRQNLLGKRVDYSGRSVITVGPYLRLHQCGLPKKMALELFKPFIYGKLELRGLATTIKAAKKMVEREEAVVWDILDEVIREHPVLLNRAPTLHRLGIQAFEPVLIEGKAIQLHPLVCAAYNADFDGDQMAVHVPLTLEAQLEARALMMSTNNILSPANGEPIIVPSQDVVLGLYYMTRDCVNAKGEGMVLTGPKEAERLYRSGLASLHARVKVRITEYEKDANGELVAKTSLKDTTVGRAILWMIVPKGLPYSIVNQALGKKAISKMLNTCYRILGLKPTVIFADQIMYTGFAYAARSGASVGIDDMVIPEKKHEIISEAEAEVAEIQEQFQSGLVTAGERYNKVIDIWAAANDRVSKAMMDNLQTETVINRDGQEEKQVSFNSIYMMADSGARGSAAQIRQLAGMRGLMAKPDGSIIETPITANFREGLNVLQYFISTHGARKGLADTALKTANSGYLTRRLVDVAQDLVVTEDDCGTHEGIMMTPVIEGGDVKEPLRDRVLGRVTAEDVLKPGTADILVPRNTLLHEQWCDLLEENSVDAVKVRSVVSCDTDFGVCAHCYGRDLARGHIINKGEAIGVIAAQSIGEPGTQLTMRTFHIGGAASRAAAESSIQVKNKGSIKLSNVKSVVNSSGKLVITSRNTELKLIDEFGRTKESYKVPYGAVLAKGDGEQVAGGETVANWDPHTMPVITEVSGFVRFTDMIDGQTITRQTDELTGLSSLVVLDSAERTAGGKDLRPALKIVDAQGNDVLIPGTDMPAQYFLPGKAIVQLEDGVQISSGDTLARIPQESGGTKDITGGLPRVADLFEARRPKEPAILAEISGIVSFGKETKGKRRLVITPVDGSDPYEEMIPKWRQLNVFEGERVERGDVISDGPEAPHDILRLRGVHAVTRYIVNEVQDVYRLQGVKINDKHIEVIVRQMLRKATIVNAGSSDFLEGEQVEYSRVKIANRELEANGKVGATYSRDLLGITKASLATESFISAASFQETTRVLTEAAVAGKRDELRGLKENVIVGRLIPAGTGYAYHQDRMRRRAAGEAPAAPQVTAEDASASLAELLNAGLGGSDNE
UniProt P0A8V2, whole entry S531L: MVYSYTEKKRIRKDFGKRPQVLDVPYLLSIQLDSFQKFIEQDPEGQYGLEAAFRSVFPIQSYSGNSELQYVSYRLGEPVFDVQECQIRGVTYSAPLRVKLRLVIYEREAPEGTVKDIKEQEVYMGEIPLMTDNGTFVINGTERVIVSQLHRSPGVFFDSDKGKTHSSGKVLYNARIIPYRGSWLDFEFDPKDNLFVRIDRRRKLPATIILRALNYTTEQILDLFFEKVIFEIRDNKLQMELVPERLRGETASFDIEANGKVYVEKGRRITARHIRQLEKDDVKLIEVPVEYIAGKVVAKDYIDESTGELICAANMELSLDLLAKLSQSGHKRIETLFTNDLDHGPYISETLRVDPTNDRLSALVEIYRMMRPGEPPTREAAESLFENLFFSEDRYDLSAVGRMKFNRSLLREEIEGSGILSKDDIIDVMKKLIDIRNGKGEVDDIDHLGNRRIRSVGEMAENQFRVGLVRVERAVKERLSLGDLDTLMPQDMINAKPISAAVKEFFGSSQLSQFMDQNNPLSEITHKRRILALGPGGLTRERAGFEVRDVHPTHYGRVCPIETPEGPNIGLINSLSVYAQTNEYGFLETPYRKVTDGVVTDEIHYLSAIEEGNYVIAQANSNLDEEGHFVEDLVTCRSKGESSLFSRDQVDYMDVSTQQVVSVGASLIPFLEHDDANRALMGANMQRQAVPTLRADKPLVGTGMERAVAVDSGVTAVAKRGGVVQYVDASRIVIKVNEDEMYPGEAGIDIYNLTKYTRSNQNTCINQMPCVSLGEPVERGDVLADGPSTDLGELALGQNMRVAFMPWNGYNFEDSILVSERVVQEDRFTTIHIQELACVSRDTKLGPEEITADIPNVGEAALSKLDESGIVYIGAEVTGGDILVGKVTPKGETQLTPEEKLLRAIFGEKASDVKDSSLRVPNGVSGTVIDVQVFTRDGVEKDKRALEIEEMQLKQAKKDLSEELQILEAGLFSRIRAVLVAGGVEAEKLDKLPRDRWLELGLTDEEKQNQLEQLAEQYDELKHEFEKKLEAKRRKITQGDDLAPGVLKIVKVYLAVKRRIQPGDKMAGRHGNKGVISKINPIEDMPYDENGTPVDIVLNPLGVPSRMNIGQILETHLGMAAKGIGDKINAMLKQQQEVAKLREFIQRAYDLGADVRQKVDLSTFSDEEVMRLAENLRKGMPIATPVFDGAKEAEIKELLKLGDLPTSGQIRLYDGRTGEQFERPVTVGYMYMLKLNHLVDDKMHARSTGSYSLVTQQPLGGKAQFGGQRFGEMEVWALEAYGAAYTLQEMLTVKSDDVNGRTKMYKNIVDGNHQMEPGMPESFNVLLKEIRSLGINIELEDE
UniProt P80299, whole entry: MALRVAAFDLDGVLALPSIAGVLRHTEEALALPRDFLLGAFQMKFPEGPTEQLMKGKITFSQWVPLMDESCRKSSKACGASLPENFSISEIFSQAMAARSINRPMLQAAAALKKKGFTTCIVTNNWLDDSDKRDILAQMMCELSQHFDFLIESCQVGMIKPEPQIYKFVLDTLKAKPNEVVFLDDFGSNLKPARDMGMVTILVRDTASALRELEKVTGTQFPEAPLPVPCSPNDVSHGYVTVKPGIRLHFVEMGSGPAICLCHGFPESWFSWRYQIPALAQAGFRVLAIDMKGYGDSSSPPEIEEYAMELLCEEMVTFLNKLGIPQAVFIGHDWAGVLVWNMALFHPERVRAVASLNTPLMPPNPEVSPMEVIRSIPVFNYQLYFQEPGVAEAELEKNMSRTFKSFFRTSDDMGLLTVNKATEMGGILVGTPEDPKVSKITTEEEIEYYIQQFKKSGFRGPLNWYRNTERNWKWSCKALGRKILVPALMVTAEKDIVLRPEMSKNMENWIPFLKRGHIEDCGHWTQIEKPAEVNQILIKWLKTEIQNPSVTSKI
UniProt Q9NRN9, whole entry: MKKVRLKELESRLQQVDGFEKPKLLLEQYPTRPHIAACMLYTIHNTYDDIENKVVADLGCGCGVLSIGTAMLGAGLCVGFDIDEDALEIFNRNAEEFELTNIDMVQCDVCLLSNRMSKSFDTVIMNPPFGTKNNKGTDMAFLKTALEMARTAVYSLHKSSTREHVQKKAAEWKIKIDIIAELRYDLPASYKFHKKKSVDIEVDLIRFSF
UniProt Q99640, whole entry: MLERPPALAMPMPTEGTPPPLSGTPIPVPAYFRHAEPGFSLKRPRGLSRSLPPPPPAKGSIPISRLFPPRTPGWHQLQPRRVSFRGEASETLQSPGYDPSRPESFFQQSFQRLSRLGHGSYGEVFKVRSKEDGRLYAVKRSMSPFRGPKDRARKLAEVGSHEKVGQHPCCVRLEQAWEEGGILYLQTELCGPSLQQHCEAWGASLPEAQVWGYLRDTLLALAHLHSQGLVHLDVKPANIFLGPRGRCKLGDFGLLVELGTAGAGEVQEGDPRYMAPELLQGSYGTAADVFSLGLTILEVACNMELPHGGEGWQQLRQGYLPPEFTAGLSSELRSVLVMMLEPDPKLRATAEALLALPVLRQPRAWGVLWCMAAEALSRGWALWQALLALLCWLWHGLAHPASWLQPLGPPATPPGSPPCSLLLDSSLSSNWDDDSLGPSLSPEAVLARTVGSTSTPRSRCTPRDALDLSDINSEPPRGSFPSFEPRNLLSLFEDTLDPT
UniProt P11802, whole entry: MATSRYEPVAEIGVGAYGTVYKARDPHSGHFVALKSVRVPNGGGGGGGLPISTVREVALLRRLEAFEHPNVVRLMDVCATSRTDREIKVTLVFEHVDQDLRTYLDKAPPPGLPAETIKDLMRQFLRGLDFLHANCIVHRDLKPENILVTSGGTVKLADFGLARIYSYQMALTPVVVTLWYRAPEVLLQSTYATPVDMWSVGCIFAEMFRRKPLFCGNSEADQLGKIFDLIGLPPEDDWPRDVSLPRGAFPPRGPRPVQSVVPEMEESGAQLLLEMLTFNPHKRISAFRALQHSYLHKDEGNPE
UniProt P0ABB4, 2-460 limits assumed: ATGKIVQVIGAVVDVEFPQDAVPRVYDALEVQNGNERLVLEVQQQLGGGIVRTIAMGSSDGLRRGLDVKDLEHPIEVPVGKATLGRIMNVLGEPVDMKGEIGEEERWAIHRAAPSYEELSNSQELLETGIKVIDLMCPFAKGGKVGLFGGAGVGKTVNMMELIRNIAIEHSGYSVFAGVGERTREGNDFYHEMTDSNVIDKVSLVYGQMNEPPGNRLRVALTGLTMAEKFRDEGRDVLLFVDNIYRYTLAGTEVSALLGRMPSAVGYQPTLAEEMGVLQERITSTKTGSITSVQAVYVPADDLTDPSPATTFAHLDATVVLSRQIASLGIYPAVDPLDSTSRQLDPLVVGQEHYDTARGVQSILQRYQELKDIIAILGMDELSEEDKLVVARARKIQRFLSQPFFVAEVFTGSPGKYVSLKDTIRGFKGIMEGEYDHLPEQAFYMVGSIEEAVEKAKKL
UniProt P00761, 9-231 limits assumed: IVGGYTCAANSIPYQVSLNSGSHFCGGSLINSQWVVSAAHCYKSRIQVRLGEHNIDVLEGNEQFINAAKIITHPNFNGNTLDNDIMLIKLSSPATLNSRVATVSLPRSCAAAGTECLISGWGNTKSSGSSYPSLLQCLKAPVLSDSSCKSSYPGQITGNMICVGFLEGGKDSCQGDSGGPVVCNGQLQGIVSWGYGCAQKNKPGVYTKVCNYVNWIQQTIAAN

The IC50 of `O=C(Nc1nc(-c2ccc3ccccc3c2)cs1)c1cccs1` is reported as 40.1 µM (MAOB; enzyme activity, inhibitor, fluorescence; recombinant human enzyme, with: kynuramine 20 µM).
`CC#C/C(=N\OC[C@H]1COCCN1)c1ccc2ncnc(Nc3ccc(OCc4cccc(F)c4)c(Cl)c3)c2c1` gave an inhibition of 23.9% (Leukocyte tyrosine kinase receptor (LTK, Homo sapiens, UniProt P29376); kinase activity; 10 µM).
For `O=C(Cn1c(-c2ccccn2)nc2ccccc21)Nc1ccc2ccccc2c1`, the IC50 was 0.0019 µM (Inosine-5'-monophosphate dehydrogenase (guaB, Escherichia coli K-12, UniProt P0ADG7, L444Y/S250A); enzyme activity, inhibitor).
`O=C(COc1ccccc1Cl)N1CCN(c2ccc3nncn3n2)CC1` gave an IC50 of 16.4 µM (MAOB; enzyme activity, inhibitor, fluorescence; recombinant human enzyme, with: kynuramine 20 µM).
The IC50 of `CC(C)Cc1nnc2c(C(=O)NC3c4ccccc4-c4ccccc43)cccn12` is reported as 4 µM (rpoZ/rpoC/rpoB (Escherichia coli, UniProt P0A800+P0A8T7+P0A8V2, S531L); enzyme activity, inhibitor; rifampicin-resistant RNA polymerase).
`O=C(Cc1ccccc1)N1CCN(c2nc3ccccc3s2)CC1` gave an IC50 of 19.7 µM (MAOB; enzyme activity, inhibitor, fluorescence; recombinant human enzyme, with: kynuramine 20 µM).
With `Cc1ccc(S(=O)(=O)Nc2ccccc2N2CCCCC2)s1` the IC50 was 19.4 ± 2.23 µM (BCHE; enzyme activity, inhibitor, fluorescence).
The IC50 of `O=C(Nc1ccc(-c2nc3ccccc3s2)cc1)C1CCN(S(=O)(=O)c2ccccc2Cl)CC1` is reported as 0.0039 µM (Bifunctional epoxide hydrolase 2 (Ephx2, Rattus norvegicus, UniProt P80299); enzyme activity, inhibitor, fluorescence; pH 7.4, 37 °C, with: CMNPC 5 µM).
The IC50 of `O=C1NC(=O)N(c2cccc(Br)c2)C(=O)/C1=C/c1c[nH]c2ccccc12` is reported as over 20 µM (Prothrombin (F2, Bos taurus, UniProt P00735); enzyme activity; 30 min preincubation, with: pyroGlu-Pro-Arg-pNA).
With `CCN(CC)c1ccc2c(O)c(C=Nc3ccc(CC(=O)NNc4c5c(nc6ccccc46)CCCC5)cc3)c(=O)oc2c1` the IC50 was 0.02 ± 0.01 µM (Acetylcholinesterase (ACHE, Homo sapiens, UniProt P22303); enzyme activity, inhibitor).
`Nc1ncnc2c1ncn2[C@@H]1O[C@H](CSCCCNC(=O)NCc2ccc3c(c2)OCO3)[C@@H](O)[C@H]1O` has an IC50 of 8 µM (METTL5, part with Trm112 (Homo sapiens, UniProt Q9NRN9); methyltransferase activity, inhibitor, MTase-Glo).
`CCN1CCN(Cc2ccc(NC(=O)c3ccc(C)c(/C=C/c4cnc5[nH]ccc5c4OC)c3)cc2C(F)(F)F)CC1` — result for “log2 fold change”: 0.286 (Membrane-associated tyrosine- and threonine-specific cdc2-inhibitory kinase, with CDC37 (PKMYT1, Homo sapiens, UniProt Q99640); inhibitor; 5 µM; reference: no inhibitor).
The IC50 of `O=C(N/N=C/c1cc([N+](=O)[O-])ccc1O)c1ccc(O)cc1O` is reported as 128 ± 10 µM (D-3-phosphoglycerate dehydrogenase (PHGDH, Homo sapiens, UniProt O43175, K58A/T60A); enzyme activity, inhibitor; K57A T59A mutant).
For `Fc1cccc(-n2cnc3c(NCc4nc5cc(Cl)ccc5[nH]4)nc(N4CCNCC4)nc32)c1`, the IC50 was 0.283 µM (Cyclin-dependent kinase 4, with cyclin D1 (CDK4, Homo sapiens, UniProt P11802); enzyme activity, inhibitor).
The IC50 of `Nc1nc(Nc2ccc(S(N)(=O)=O)cc2)nn1C(=S)Nc1c(F)cccc1F` is reported as 0.46 µM (Putative glycogen synthase kinase (Leishmania major, UniProt Q4QE15, D105E); enzyme activity, inhibitor; 90 min, 30 °C, with: 2 µM ATP).
The IC50 of `CCCCCCC1c2ccc(O)cc2Oc2cc(O)ccc21` is reported as over 200 µM (atpA/atpD (Escherichia coli, UniProt P0ABB0+P0ABB4); ATPase activity, inhibitor).
With `O=C(NOCC1CC1)c1cc(Br)c(F)c(F)c1Nc1ccc(I)cc1Cl` the IC50 was 15.9 ± 1.08 µM (BCHE; enzyme activity, inhibitor, fluorescence).
`CC[C@@H](C)[C@@H](NC(=O)C(O)Cc1ccc(O)c(Cl)c1)C(=O)N1C(C(=O)NCCCCN=C(N)N)CC2CCC(OS(=O)(=O)O)CC21` (stereo partly drawn) gave an IC50 of 0.07 µg/mL (Trypsin (Sus scrofa, UniProt P00761); enzyme activity, inhibitor).

A few entries again:
With `CCN(CC)c1ccc2c(O)c(C=Nc3ccc(CC(=O)NNc4c5c(nc6ccccc46)CCCC5)cc3)c(=O)oc2c1` the IC50 was 0.02 ± 0.01 µM (Acetylcholinesterase (ACHE, Homo sapiens, UniProt P22303); enzyme activity, inhibitor).
`Nc1ncnc2c1ncn2[C@@H]1O[C@H](CSCCCNC(=O)NCc2ccc3c(c2)OCO3)[C@@H](O)[C@H]1O` has an IC50 of 8 µM (METTL5, part with Trm112 (Homo sapiens, UniProt Q9NRN9); methyltransferase activity, inhibitor, MTase-Glo).
